Results of several laboratories.
Each line is one published result; not all experiments were run side by side. Several values in a cell are separate wells, animals, samples, runs or records. ± marks the error that the study gave.
Oprd1: Delta-type opioid receptor (Oprd1, Rattus norvegicus, UniProt P33533)
Sequence of UniProt P33533 (whole entry, looked up): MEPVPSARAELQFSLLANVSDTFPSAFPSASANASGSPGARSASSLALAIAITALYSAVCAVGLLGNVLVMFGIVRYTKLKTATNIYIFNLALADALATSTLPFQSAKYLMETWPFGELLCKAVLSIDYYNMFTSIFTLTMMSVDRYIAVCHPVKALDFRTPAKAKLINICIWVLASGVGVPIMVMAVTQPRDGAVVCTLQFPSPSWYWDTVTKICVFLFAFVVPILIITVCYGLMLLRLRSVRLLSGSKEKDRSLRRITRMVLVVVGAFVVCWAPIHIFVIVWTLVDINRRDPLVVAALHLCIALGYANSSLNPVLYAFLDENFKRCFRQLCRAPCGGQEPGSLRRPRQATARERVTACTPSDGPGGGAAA
PAL1 Y110F: PAL1 (Petroselinum crispum, UniProt P24481, Y110F)
PIM3: Serine/threonine-protein kinase pim-3 (PIM3, Homo sapiens, UniProt Q86V86)
Sequence of UniProt Q9ULW8 (whole entry, looked up): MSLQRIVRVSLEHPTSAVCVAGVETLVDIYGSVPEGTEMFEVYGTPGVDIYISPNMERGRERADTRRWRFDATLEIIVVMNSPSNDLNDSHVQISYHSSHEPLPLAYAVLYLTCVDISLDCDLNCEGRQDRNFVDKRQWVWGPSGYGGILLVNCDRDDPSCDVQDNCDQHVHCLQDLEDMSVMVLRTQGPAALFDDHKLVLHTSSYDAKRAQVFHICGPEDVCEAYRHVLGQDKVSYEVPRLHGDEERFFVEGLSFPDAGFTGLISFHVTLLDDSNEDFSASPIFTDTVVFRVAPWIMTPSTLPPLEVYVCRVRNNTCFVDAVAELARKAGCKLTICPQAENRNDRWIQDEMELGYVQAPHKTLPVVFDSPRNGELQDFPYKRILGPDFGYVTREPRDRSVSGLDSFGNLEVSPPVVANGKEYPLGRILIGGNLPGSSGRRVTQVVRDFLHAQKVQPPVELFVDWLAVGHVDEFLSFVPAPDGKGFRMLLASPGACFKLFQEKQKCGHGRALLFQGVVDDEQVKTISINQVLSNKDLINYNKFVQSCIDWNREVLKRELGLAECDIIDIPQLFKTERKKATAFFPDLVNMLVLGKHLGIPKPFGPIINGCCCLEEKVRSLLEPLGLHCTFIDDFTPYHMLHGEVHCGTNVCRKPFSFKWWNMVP
Sequence of UniProt Q9UH17 (whole entry, looked up): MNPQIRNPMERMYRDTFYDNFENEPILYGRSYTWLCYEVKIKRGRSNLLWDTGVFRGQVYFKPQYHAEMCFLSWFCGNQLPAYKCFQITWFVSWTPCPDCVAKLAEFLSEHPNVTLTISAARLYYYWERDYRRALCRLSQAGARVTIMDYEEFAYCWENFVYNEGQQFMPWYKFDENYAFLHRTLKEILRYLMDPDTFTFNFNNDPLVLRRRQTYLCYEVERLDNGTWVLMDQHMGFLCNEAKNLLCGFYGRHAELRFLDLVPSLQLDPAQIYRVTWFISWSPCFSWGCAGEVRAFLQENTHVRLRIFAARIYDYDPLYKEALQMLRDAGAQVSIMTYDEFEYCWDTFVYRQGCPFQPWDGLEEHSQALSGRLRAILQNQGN
Sequence of UniProt P20273 (whole entry, looked up): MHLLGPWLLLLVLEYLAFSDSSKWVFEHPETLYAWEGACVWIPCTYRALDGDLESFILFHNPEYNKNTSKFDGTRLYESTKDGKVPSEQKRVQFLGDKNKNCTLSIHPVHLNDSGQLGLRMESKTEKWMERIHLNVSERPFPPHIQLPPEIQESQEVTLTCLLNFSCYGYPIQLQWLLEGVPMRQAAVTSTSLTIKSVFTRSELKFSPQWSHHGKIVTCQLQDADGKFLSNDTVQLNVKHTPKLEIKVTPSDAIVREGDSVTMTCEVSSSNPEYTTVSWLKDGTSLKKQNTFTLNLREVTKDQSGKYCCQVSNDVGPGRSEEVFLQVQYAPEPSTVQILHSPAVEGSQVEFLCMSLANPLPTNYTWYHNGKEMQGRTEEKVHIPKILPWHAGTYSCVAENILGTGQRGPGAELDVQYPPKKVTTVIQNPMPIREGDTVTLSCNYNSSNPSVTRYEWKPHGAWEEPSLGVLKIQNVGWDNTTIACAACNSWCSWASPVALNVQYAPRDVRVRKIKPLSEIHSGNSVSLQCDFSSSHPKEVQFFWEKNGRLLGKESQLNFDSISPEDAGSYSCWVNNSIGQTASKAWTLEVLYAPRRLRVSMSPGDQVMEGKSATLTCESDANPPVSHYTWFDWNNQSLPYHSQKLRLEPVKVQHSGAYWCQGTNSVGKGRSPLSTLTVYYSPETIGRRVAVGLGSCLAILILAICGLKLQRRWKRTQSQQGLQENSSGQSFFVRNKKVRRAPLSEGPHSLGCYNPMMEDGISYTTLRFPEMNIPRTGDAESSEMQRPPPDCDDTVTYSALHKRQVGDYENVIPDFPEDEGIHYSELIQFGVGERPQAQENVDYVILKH
Sequence of UniProt Q07912 (whole entry, looked up): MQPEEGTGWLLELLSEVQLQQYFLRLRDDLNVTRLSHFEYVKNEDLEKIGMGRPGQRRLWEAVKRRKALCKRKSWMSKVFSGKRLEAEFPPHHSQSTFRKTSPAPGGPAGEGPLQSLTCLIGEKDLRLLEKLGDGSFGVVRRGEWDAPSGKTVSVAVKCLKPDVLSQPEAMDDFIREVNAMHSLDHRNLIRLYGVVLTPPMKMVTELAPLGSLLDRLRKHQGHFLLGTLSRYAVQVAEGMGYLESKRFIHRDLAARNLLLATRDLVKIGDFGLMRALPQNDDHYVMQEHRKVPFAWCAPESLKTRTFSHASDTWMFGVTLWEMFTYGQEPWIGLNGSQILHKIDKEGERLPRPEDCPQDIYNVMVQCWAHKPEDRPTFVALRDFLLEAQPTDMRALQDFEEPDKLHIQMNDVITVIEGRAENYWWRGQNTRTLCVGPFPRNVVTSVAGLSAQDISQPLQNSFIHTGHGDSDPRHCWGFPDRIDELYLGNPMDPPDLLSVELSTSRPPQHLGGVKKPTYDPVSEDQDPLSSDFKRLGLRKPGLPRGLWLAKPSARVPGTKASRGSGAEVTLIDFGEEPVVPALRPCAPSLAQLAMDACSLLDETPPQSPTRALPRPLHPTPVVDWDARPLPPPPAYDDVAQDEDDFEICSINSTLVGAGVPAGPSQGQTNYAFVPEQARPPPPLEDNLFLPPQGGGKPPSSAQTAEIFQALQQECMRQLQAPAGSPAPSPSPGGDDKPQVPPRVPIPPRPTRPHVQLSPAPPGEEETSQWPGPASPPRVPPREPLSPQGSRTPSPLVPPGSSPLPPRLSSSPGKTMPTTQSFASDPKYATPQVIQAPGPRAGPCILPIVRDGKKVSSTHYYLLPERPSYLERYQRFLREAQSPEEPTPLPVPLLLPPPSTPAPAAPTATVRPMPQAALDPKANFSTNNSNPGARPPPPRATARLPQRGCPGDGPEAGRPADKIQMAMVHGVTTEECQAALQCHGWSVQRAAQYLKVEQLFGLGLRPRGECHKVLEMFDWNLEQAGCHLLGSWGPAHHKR
Sequence of UniProt P0A988 (whole entry, unmodified, looked up): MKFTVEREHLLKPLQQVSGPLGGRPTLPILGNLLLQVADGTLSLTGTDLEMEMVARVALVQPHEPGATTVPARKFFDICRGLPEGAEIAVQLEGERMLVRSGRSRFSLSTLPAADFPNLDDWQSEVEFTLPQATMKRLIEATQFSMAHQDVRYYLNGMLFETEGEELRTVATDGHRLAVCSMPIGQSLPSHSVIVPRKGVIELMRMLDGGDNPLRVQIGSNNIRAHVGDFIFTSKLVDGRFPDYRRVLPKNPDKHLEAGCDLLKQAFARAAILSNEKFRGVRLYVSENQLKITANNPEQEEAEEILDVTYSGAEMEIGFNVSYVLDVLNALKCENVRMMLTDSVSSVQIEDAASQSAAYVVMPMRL
Sequence of UniProt P30291 (whole entry, looked up): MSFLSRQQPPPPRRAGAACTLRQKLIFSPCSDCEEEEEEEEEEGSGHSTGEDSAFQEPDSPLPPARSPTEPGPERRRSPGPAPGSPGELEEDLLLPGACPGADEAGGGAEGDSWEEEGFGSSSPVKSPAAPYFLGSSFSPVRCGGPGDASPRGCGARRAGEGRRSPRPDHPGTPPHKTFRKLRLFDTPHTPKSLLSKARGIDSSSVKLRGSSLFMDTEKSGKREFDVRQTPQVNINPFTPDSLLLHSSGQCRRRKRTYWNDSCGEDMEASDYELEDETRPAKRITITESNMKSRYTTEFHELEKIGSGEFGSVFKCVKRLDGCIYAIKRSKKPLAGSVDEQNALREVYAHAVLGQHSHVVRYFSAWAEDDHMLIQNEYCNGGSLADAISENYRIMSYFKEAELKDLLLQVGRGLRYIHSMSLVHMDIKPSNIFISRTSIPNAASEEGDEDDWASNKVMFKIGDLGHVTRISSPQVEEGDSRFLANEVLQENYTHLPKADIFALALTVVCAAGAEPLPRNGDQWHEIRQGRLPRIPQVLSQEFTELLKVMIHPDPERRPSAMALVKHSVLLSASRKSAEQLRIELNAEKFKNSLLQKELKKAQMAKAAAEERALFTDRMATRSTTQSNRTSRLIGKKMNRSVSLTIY
Sequence of UniProt P14854 (whole entry, looked up): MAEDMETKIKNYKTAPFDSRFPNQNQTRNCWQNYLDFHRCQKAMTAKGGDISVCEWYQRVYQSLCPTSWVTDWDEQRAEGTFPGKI
Sequence of UniProt P38489 (whole entry, looked up): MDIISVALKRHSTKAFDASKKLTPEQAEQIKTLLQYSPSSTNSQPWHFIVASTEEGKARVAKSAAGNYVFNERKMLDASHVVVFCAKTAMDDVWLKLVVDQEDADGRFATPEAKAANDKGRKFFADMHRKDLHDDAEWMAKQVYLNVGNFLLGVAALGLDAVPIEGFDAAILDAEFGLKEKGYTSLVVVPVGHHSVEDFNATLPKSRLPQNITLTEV

Compound	target	test	test system	conditions	scale	measurement	result
C[C@@]12C(=O)CC[C@H]1[C@@H]1CC=C3C[C@@H](O)CC[C@]3(C)[C@H]1C=C2c1cccnc1	7-alpha-hydroxycholest-4-en-3-one 12-alpha-hydroxylase (Homo sapiens, UniProt Q9UNU6, W281F)	inhibitor	–	80 µM, added: 7α-hydroxycholest-4-en-3-one 0.54 µM	–	remaining activity	52 ± 3.29%
CCCC[C@H]1CNCCN1C[C@@H]1CCCN1C[C@H](CC1CCCCC1)N1CCN(CCC23CC4CC(CC(C4)C2)C3)[C@H]([C@H](C)CC)C1	Oprd1	radioligand binding	rat brain membranes	500 nM, pH 7.5, 25 °C, added: 2 nM [3H]DPDPE	–	remaining binding	91.4%
CN(C)CCCSC(=S)N1CCN(C(=O)/C=C/c2coc3ccccc3c2=O)CC1	Nucleoprotein (N, Tomato spotted wilt virus, UniProt P25999, R94A/Y184A)	binding, microscale thermophoresis	–	15.62 µM	dose series	MST response	0.907 a.u.
Cc1ncc([N+](=O)[O-])n1CC(O)Cn1cc(CO[C@]2(C(=O)O)C[C@H](O)[C@@H](NC(=O)CF)[C@H]([C@H](O)[C@H](O)CNC(=O)c3ccc(Oc4ccccc4)cc3)O2)nn1 (some centres unmarked)	B-cell receptor CD22 (CD22, Homo sapiens, UniProt P20273)	isothermal titration calorimetry	–	concentration not given	–	binding stoichiometry	1.48 ± 0.01
CC(C)CC(O)(CC(C)C)c1cn(C(=O)N2CCCC2)nn1	Triacylglycerol hydrolase DDHD2 (Ddhd2, Mus musculus, UniProt Q80Y98)	probe labelling, inhibitor, refers to: Ddhd2	mouse, brain	i.p., 0.8 mg/kg, 4 h, protein level	reference: treated over vehicle mice, lower = stronger inhibition	activity ratio-of-ratios	1.48
CCCC[C@H]1CNCCN1C[C@@H]1CCCN1C[C@H](CC1CCCCC1)N1CCN(CCCC2CCCC2)[C@H]([C@@H](C)O)C1	Oprd1	radioligand binding	rat brain membranes	500 nM, pH 7.5, 25 °C, added: 2 nM [3H]DPDPE	–	remaining binding	97.8%
COc1c(N2CC3CCCNC3C2)c(F)cc2c(=O)c(C(=O)OCc3cnc([N+](=O)[O-])n3C)cn(C3CC3)c12 (centres unmarked)	Oxygen-insensitive NAD(P)H nitroreductase (nfsB, Escherichia coli K-12, UniProt P38489)	substrate	–	added: NADH 100 µM	–	kcat	0.0975 s⁻¹
N[C@@H](Cc1ccccc1)P(=O)(O)O	PAL1 Y110F	binding, ITC	–	–	–	ΔH	-8.5 kcal/mol
C#CCCCCOc1ccc2c(c1)CCCN2C(=O)CCl	Cytochrome c oxidase subunit 6B1 (Homo sapiens, UniProt P14854)	mass spectrometry profiling, refers to: COX6B1	H460 cell lysate	100 µM over 10 µM, UniProt P14854	reference: high over low concentration	reactivity ratio	1.55
CN(C)[C@H]1C[C@@]23CC[C@@]4(O2)C(=CC[C@]2(C)[C@@H](c5ccc6ccncc6c5)CC[C@H]24)C=C3[C@@H](O)[C@@H]1O	Activated CDC42 kinase 1 (TNK2, Homo sapiens, UniProt Q07912)	ATP probe labelling, inhibitor, KiNativ profiling	–	1 µM	–	inhibition	-2%
O=C1NC(=O)c2c1c1cc(F)c[n+]3c1c1c2c2cc(O)ccc2[n]1[Ru-4]312([N]=C=S)[S+]3CC[S+]1CC[S+]2CC3 (centres unmarked)	LIM domain kinase 1 (LIMK1, Homo sapiens, UniProt P53667)	enzyme activity	–	100 nM, human enzyme, added: 10 µM ATP	reference: untreated	remaining activity	86%
Nc1ccn([C@@H]2O[C@H](COP(=O)(O)OP(=O)(O)OP(=O)(O)O)[C@@H](O)[C@H]2O)c(=O)n1	RNA-directed RNA polymerase L (Human respiratory syncytial virus A, UniProt P28887)	UTP incorporation, substrate	–	position +1 downstream of cytidine	–	Vmax	0.71 product fraction
C=CC(=O)NC[C@H](NC(=O)[C@H](CC1CCCCC1)NC(=O)[C@H](CCC(N)=O)NC(C)=O)C(=O)N[C@@H](CC(C)C)C(=O)N[C@@H](Cc1ccccc1)C(=O)O	Beta sliding clamp (Escherichia coli, UniProt P0A988)	binding, isothermal titration calorimetry	–	37 °C	–	-TΔS	4.9 kcal/mol
C=C(c1ccccc1)[C@@H](N)P(=O)(O)O	PAL1 Y110F	binding, ITC	–	–	–	ΔG	-9.4 kcal/mol
C[C@H](NCc1ccc(-c2ccc(C(F)(F)F)cc2)cc1)C(N)=O	PIM3	cell-free assay, competition with immobilised ligand	–	1 µM	–	inhibition	5%
COCC1CCCCN1C(=O)n1cc(C(O)(c2ccccc2)c2ccccc2)nn1 (centres unmarked)	Acot1 (Mus musculus, UniProt O55137)	probe labelling, inhibitor, competitive ABPP-SILAC	mouse T cells	concentration not given, 4 h, protein level	reference: treated over DMSO cells, lower = stronger inhibition	SILAC activity ratio	1.02
CCOC(=O)[C@@H]1Cc2c(cc([N+](=O)[O-])cc2[N+](=O)[O-])[C@H](O)[C@]12C(=O)Nc1ccc(Br)cc12	Wee1-like protein kinase (WEE1, Homo sapiens, UniProt P30291)	binding, competition with immobilised ligand	–	0.1 µM	–	remaining binding	78%
CC(C)C[C@H](NC(=O)[C@H]1O[C@@H]1C(=O)O)C(=O)NCCCCN=C(N)N	Calpain-1 catalytic subunit (CAPN1, Homo sapiens, UniProt P07384)	–	–	–	–	Hill slope	-1.64
O=C(O)c1ccccc1/C=N/Nc1nc(-c2ccccc2Cl)cs1	Casein kinase I isoform epsilon (CSNK1E, Homo sapiens, UniProt P49674)	kinase activity	–	1 µM	–	inhibition	10.1%
CS(C)(=O)=Nc1ccc(-c2ccc(-c3nc4cc(O[C@@H]5CO[C@H]6[C@@H]5OC[C@H]6O)[nH]c4cc3F)cc2)cc1	Mitogen-activated protein kinase 12 (MAPK12, Homo sapiens, UniProt P53778)	enzyme activity, inhibitor	–	10 µM	–	inhibition	-5%
O=C(O)c1ccc(-c2nc(-c3ccccc3Cl)c3sccn23)cc1	5-HT1B receptor	radioligand binding	–	10 µM	reference: control	specific binding	98.7% and 87.1%
COc1ccccc1-c1n[nH]c2nc(N[C@H]3CC[C@H](NS(=O)(=O)CC(C)C)CC3)ncc12	mitogen-activated protein kinase 9 (Leishmania donovani, UniProt A0A3Q8IB74)	competitor, bead pull-down competition	Leishmania donovani extract	10 µM	reference: vehicle	relative abundance	0.21
O=C(N[C@@H]1c2ccccc2C[C@H]1N1CCCC1)c1ccc(-c2ccnc3[nH]ccc23)nc1	Serine/threonine-protein kinase 33 (STK33, Homo sapiens, UniProt Q9BYT3)	binding, competition with immobilised ligand	–	3 µM	–	remaining binding	37%
OC[C@H]1CNCCN1C[C@@H]1CCCN1C[C@@H](Cc1ccc2ccccc2c1)N1CCN(CCC23CC4CC(CC(C4)C2)C3)[C@H](Cc2ccc(O)cc2)C1	Oprd1	radioligand binding	rat brain membranes	500 nM, pH 7.5, 25 °C, added: 2 nM [3H]DPDPE	–	remaining binding	91.1%
CC[C@H](C)[C@@H]1NC(=O)[C@H](CC(N)=O)NC(=O)[C@@H]2CCCN2C(=O)[C@@H](NC(=O)[C@H](CC(N)=O)NC(=O)CNCCC(N)=O)COC(=O)[C@H](CCSC)NC(=O)[C@H](Cc2c[nH]c3ccccc23)NC(=O)[C@H](CCC(N)=O)NC(=O)CNC(=O)[C@H](Cc2ccccc2)NC1=O	Fsr quorum sensing protein (Enterococcus faecalis, UniProt A0ACD6TCR9)	reporter gene, agonist	–	–	reference: compound over native peptide	potency ratio	~2 fold
N[C@H](C(=O)N1CCCC1)C1CCN(c2nccc3c(-c4ncc(Cl)cc4Cl)cccc23)CC1	Protein-arginine deiminase type-3 (PADI3, Homo sapiens, UniProt Q9ULW8)	enzyme activity	–	0.03932 µM, added: Ca2+ 0.25 mM	–	kcat	0.0892 s⁻¹ and 0.0823 s⁻¹
CC(C)[C@H]1NC(=O)C[C@H]2/C=C/CCSSC[C@@H](NC1=O)C(=O)N[C@H](Cc1cccc3ccccc13)C(=O)NCC(=O)O2	PIM3	enzyme activity, inhibitor	–	10 µM	–	inhibition	2.5%
CC(=O)N[C@H]1[C@@H](O)[C@H](O)[C@@H](CO)O[C@H]1O	N-acetylmannosamine kinase (nanK, Haemophilus influenzae, UniProt Q4QP43, T131V)	binding	–	–	–	ΔH	-4.02 ± 0.277 kcal/mol
C=CC(=O)Nc1cc(-c2ccc(C(=O)N3CCCC(O)(CC)C3)cc2)ccc1F (centres unmarked)	DNA dC->dU-editing enzyme APOBEC-3B, C-terminal domain (Homo sapiens, UniProt Q9UH17)	covalent adduct, intact protein MS	–	1 h, 10-fold excess, 250 µM	–	unmodified protein	80% and 74%

Repeated from above:
Compound	target	test	test system	conditions	scale	measurement	result
N[C@H](C(=O)N1CCCC1)C1CCN(c2nccc3c(-c4ncc(Cl)cc4Cl)cccc23)CC1	Protein-arginine deiminase type-3 (PADI3, Homo sapiens, UniProt Q9ULW8)	enzyme activity	–	0.03932 µM, added: Ca2+ 0.25 mM	–	kcat	0.0892 s⁻¹ and 0.0823 s⁻¹
CC(C)[C@H]1NC(=O)C[C@H]2/C=C/CCSSC[C@@H](NC1=O)C(=O)N[C@H](Cc1cccc3ccccc13)C(=O)NCC(=O)O2	PIM3	enzyme activity, inhibitor	–	10 µM	–	inhibition	2.5%
